Measurements collected from several papers.
Parts stem from different laboratories: compare values within a part only. Changes are numbered by the printed parent chain.

Sample 1
Target: Interferon regulatory factor 3, full length, phosphomimetic (IRF3, Homo sapiens, UniProt Q14653, residues 1-427, S386D/S396D/S398D/S402D/T404D/S405D)
Chain of UniProt Q14653 (whole entry, unmodified, looked up): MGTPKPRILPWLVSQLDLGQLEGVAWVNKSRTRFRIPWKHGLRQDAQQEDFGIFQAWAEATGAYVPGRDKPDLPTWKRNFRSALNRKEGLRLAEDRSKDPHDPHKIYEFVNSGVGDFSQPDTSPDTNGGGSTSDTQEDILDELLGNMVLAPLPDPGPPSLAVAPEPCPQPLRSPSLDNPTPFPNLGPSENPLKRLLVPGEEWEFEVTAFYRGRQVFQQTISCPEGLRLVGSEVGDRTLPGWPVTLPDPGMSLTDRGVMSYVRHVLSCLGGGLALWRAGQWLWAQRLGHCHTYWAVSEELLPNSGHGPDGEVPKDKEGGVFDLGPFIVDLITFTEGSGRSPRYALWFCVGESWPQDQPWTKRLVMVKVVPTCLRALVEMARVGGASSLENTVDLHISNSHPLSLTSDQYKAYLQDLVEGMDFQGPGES
Technique: protein-binding microarray
Form: double-stranded DNA, one strand shown
Sample: in vitro
Tested at: 2540 nM top
Notes: 60-bp whole probe
With: salmon DNA 0.4 mg/ml
Relative to: random background probes
Direction: higher = stronger binding
All sequences stand within: GCCTAGCAC … GTCTTGATTCGCTTGACGCTGCTG
Strand	fitted relative affinity [z-score]
TTAGGTTTCCATTCCCTTTAGTGCTAG	8.75
TCATATATATTTATGTAACTGTGCTAG	0.646
CTATCTCTGTTTTTGCTTTCGTGCTAG	2.97
TTAGGCCTGGGTTTCGGTTAGTGCTAG	2.7
CACGGTATCGGGTTTCGGGACGTGCTA	2.79
GACGGTTTCCTTTTCCTGTCGTGCTAG	11.4
CTAGGTTTCGGACTGGGTTAGTGCTAG	4.26
TTAGGTTTCCGTTCCGGTTAGTGCTAG	9.09
TTAGGTATCCGGTATCGGTTAGTGCTA	2.85
GACGGACTGCTACTGCTAACGTGCTAG	-0.635
GACGGTTTGGGTTTCGGGACGTGCTAG	2.21
GGCGGTTTCGACACTGGGGACGTGCTA	3.06
GACGGTTTCCTACTTCTGACGTGCTAG	6.38
GACGGTTCCGCTTTCGGGACGTGCTAG	4.09
TTAGGTATCGGTTTCGGCTAGTGCTAG	6.82
ATAGATCTCAGACTGGATTAGTGCTAG	0.0175
TTAGATTTCAGTCCCGATTAGTGCTAG	1.04
TTAGGTATCCTTAGCCTTTAGTGCTAG	1.75
TCAACGAATTAGAAAGAGCAGTGCTAG	0.177
TCAATGTTCCTTATTTAACTGTGCTAG	2.6
GACGATTTCATTTTCGAGACGTGCTAG	3.71

Sample 2
Target: ABI1, truncated, D143A, DHFR fusion (Arabidopsis thaliana, UniProt P49597)
Technique: DHFR PCA, dose-response
Sample: yeast
Notes: Hill fit, mean, not affinity
With: (+)-ABA, dose series
Direction: lower = more sensitive
Starting sequence: PYL1, truncated, DHFR fusion (Arabidopsis thaliana, UniProt Q8VZS8); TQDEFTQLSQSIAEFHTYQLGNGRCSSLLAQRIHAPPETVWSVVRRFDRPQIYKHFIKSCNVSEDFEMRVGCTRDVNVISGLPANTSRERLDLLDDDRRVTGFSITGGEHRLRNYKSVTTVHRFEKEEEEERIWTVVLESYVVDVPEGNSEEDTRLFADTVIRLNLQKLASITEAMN
Change	ABA EC50
D96T	236 µM
Q167M	1.97 µM
R163V	90.6 µM
L8R	64.3 µM
A35C	6.15 µM
R46M	7.34 µM
T17M	12.8 µM
M176C	4.63 µM
L166N	948 µM
D96I	442 µM
V78S	140 µM
V142R	9.95 µM
T119Q	6.56 µM
Q19K	2.6 µM
S27V	911 µM
D153E	0.452 µM
I172G	219 µM
Q7T	2.15 µM
S117T	312 µM
I105L	239 µM
G23M	8.05 µM
Q2A	3.82 µM
A170Q	2.6 µM
V145Q	42.4 µM
R49I	18.2 µM

Sample 3
Target: CCND2, cyclin fold, Cln2 fusion (human)
Technique: yeast growth competition, sequencing
Sample: yeast
Notes: weak parent motif
Relative to: not given
Direction: higher = stronger binding
Starting sequence: FZR1 docking peptide (human); QDYERRLLRQIVI; partner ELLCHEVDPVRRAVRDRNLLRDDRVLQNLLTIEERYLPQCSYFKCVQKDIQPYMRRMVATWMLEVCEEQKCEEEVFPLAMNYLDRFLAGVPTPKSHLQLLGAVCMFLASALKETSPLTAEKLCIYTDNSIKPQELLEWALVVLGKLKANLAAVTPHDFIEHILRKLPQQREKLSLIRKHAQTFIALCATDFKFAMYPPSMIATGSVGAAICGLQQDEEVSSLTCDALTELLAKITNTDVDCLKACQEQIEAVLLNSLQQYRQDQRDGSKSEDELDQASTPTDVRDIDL
Change	normalised enrichment score
Q1A	0.184
R5K L8F	-0.2
R5A	0.356
R5A L7A	0.107
D2A	0.0534
I11A	0.413
R5K	-0.0246
Y3A	0.131
E4A	0.133
L8A	-0.0616

Sample 4
Target: Max dimerization protein 1, bHLH-zipper, MAX partner unstated (MXD1, Homo sapiens, UniProt Q05195, residues 56-136)
Technique: protein-binding microarray
Form: double-stranded DNA, one strand shown
Sample: in vitro
Tested at: not given
Notes: k-mer, scored over probes, only values ≥0.25
Direction: higher = stronger binding
Target sequence (chain): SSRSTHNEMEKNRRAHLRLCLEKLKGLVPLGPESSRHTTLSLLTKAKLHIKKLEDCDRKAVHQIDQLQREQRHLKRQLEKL
Strand	E-score
CGTGTCTA	0.308
CGTGACAC	0.275
ACATGGTC	0.406
CCTTGCAC	0.26
GGGGGGAA	0.322
GAACGCAC	0.256
GCGTGGAA	0.35
ACCACACG	0.382
ATCTCGTG	0.3
ACCACCTG	0.265
ACGTGCTC	0.407
AGCACGCC	0.345
ATGCTTCC	0.289
AGGTGGCG	0.288
CGTGCGAG	0.278
CACCTGTC	0.257

Sample 5
Target: RING finger protein unkempt homolog, zinc fingers 1-6, GST-SBP tag (UNK, Homo sapiens, UniProt Q9C0B0, residues 30-357)
Chain of UniProt Q9C0B0 (30-357, looked up): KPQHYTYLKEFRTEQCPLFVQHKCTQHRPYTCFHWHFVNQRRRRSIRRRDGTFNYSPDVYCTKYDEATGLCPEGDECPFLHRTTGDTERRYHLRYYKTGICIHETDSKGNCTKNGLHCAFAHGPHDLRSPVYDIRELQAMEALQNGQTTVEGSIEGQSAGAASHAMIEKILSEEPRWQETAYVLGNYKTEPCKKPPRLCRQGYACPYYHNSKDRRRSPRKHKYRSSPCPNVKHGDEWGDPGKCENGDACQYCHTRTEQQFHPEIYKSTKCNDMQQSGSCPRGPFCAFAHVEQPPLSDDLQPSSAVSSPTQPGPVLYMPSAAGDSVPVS
Technique: RNA Bind-n-Seq
Form: RNA
Sample: in vitro
Tested at: not given
Notes: RNA with constant flanks, human and mouse sites, ends assumed
Relative to: input RNA pool
Direction: higher = stronger binding
All sequences stand within: GGGAGUUCUACAGUCCGACGAUC … CAACAGAGGAUUGAGCAUCA
Strand	bound/input enrichment [ratio]
CUCAAAGAGCUGCUCUCUUGGAAGGUUCUGAGCACGGAAGACUAUACAACAUGCUUUUCUAGCAAAAAUUUUGUCCAUGAAGCAGUGGACUAUGUUAUCGGUCACUUGAUCCAAGAGAAG	0.215
GGCAAAGGCAAAGGCGGCUCGGGAGAUUCAGCCGUGAAGCAAGUGCAGAUAGAUGGCCUUGUGGUAUUAAAGAUAAUCAAACAUUAUCAAGAAGAAGGACAAGGAACUGAAGUUGUUCAA	0.154
UGUUUGGUUCUGUGUAUGCAGACACAUGAGCUGUGGGGUAACAAUCAAAACGUAAUCUUUCAUAGAUAGCCAUUACAUUUCUUUAAAUUUUUCAAUGCCGAUGUGUAUUCUAUAAGAGAA	18.3
CUCUUAAAAACUGUACCAAUUAUCCAAAAUCAAAUGGAUGCACUUCUUGAUUUUAAUGUUAAUAGUAAUGAACUUACAAAUGGGGUAAUAAAUGCUGCCUUCAUGCUCCUCUUCAAAGAU	0.435
GCAGACUUGGUAAAACCCAGGGUACAGUUAGAUUUUUUGUUGUUGUUGUAUUAUUUAAAUUAUAGCCUUCCAAAAACUGUUUUUGAUCAUAAUUGCUGUAUCAUUUGUAAUUUUUUUUAA	31.1
CUGCAGAGCAAACCACCUCCUGGGAUUGGUGAAAGUUUGGGUGUAAAUGUGACUGAGAAAAUAGAAAUUCAUCUUGAAGAACCAGCCCCUUCAGAUAAACAGCUCUCUAAUGAUGCAGCG	0.406
GACUCUGAUAUGGAAGAGGAGGCAGAUGAUGGCUGUAAGGUGGCACCUGAUUUAAUCAGUCAGCAAGAUACCUGUGUAGAUUCUACUUCAUCCCUGAGAGAGAACAAACAACCAGAAGUU	0.112
CUUUGUAUAUAUUUUUUUGUGUACAUGCACACAUCUCGAAAUCCAUUUCCGUGUUUAAUGUUAGUUGUUUAUGUGUUAGUAUUCCUGUGUCUACUGUUUUGUUGUUGUUAAUAUGGGUAA	5.78
GCAAUAAAAUAUAAAUCAUUCUAUUGGAGAGAAAUGCAUUGUUUUCUGCCAGUGGAUAUUUUCUUUGAAAGUUUGCAGACUGAGAGGAGAGAGGCAGAGCAACGAUGUAGUGAAAUGUUG	0.286
AAUAUACAUGGAACUUUGGUCUUUGGAACAAGUAGUAGUUUGUCUGGCAUAAUGGCAAACUUAGUUUUCCGAAACAGUUUCAAGGUUAAAUAUGAAGCUUUGAAGACCUAUGCAUCCCUG	0.214
GGAAGCUUCCAAAAGAAAACCCCACAAGUUUUCCAUUUUCUUGAAGUAGAAAAAUGAACAGUAAUUAUGAAGAUGAUUAAUAAUUGUGCUAUGGGAUGUGUGGACUGUUUUGUGUGUUUC	0.307

Sample 6
Target: ATF7, bZIP domain (human)
Technique: DHFR protein complementation
Sample: yeast
Notes: single substitutions, most at no-binding floor
Relative to: wild-type JUN-FOS pair
Direction: higher = stronger binding
Starting sequence: JUN, bZIP domain (human); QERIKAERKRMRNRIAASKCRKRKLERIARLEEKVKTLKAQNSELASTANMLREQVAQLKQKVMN; partner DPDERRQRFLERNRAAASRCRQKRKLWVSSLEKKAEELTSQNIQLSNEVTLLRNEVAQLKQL
Change	binding fitness [natural log]
N42C	-1.26
S43G	-1.05
E33M	-1.1
L45D	-1.51
E32Y	-1.19
A29I	-0.936
I28G	-1.21
K34Y	-1.07
A40H	-0.971
L52K	-1.5
E54Q	-1.23
K39E	-0.816
M51C	-1.15
K36Q	-0.933
A57H	-0.972
L52W	-1.55
T48F	-1.21
R53Q	-1.31
Q41P	-1.5
E44S	-1.1
N42A	-1.35

Excerpt of the above (sample 5):
Strand	bound/input enrichment [ratio]
UGUUUGGUUCUGUGUAUGCAGACACAUGAGCUGUGGGGUAACAAUCAAAACGUAAUCUUUCAUAGAUAGCCAUUACAUUUCUUUAAAUUUUUCAAUGCCGAUGUGUAUUCUAUAAGAGAA	18.3
GCAAUAAAAUAUAAAUCAUUCUAUUGGAGAGAAAUGCAUUGUUUUCUGCCAGUGGAUAUUUUCUUUGAAAGUUUGCAGACUGAGAGGAGAGAGGCAGAGCAACGAUGUAGUGAAAUGUUG	0.286
GACUCUGAUAUGGAAGAGGAGGCAGAUGAUGGCUGUAAGGUGGCACCUGAUUUAAUCAGUCAGCAAGAUACCUGUGUAGAUUCUACUUCAUCCCUGAGAGAGAACAAACAACCAGAAGUU	0.112
GCAGACUUGGUAAAACCCAGGGUACAGUUAGAUUUUUUGUUGUUGUUGUAUUAUUUAAAUUAUAGCCUUCCAAAAACUGUUUUUGAUCAUAAUUGCUGUAUCAUUUGUAAUUUUUUUUAA	31.1
GGAAGCUUCCAAAAGAAAACCCCACAAGUUUUCCAUUUUCUUGAAGUAGAAAAAUGAACAGUAAUUAUGAAGAUGAUUAAUAAUUGUGCUAUGGGAUGUGUGGACUGUUUUGUGUGUUUC	0.307
CUCUUAAAAACUGUACCAAUUAUCCAAAAUCAAAUGGAUGCACUUCUUGAUUUUAAUGUUAAUAGUAAUGAACUUACAAAUGGGGUAAUAAAUGCUGCCUUCAUGCUCCUCUUCAAAGAU	0.435
